{"data": "Measured values collected from several papers", "note": "Each line is one published result; not all experiments were run side by side. Several values in a cell are separate wells, animals, samples, runs or records. ± gives the spread as reported."}
{"Structure (SMILES)": "CNCCO.O=C(O)C(Cl)Cl", "organism": "Amaranthus retroflexus", "assay": "herbicidal activity", "conditions": "15 mg/mL, 21 days, post-emergence greenhouse", "endpoint": "inhibition", "result": "0%"}
{"Structure (SMILES)": "COc1ccc(-c2[nH]c3ccccc3c2C[C@H]2NC(=O)[C@@H](CO)NC(=O)[C@@H](C(C)C)NC(=O)[C@H](Cc3ccccc3)NC(=O)[C@@H](C(C)C)NC(=O)[C@@H](C)NC(=O)[C@H](CO)NC2=O)c(OC)c1", "organism": "Vibrio vulnificus", "assay": "broth dilution", "endpoint": "MIC90", "result": "50 µM"}
{"Structure (SMILES)": "CCc1nn(C)c2nc(-c3ccc(C(=O)O)cc3)nc(NCc3ccccc3)c12", "organism": "Cryptosporidium parvum", "assay": "parasite growth, immunofluorescence imaging", "test system": "HCT-8, Iowa", "conditions": "74.1 nM", "endpoint": "inhibition", "result": "-1.94% and -14.1%"}
{"Structure (SMILES)": "FC(F)(F)c1cccc(CNc2nc(NC3CCN(Cc4ccccc4)CC3)c3nc[nH]c3n2)c1", "organism": "Cryptococcus neoformans", "assay": "RNA-seq, measured: CNAG_05320", "conditions": "48 µg/mL, 3 h", "how to read": "baseline: untreated", "endpoint": "mRNA fold change", "result": 1.31}
{"Structure (SMILES)": "Cc1cc(Cl)cc(S(C)=NC#N)c1NC(=O)c1cc(Br)nn1-c1ncccc1Cl (centres unmarked)", "organism": "Spodoptera litura", "assay": "leaf-dip", "test system": "third instar larvae", "conditions": "12.5 ppm, 24 h", "endpoint": "mortality", "result": "3.3%"}
{"Structure (SMILES)": "CCOC(=O)C1(Cc2ccc(OC)cc2)Oc2cc(F)ccc2N(Cc2ccc(OC)cc2)C1=O (centres unmarked)", "organism": "Amaranthus retroflexus", "assay": "fresh weight, greenhouse postemergence", "conditions": "postemergence, 150 g ai/ha, 21 days", "endpoint": "inhibition", "result": "44.3 ± 5.31%"}
{"Structure (SMILES)": "CC(C)CCCCCCCCC/C=C/C(=O)N[C@@H](CC(=O)O)C(=O)N[C@H]1CNC(=O)[C@@H]2CCCN2C(=O)[C@H](C(C)C)NC(=O)[C@@H](CN)NC(=O)CNC(=O)[C@H](CC(=O)O)NC(=O)CNC(=O)[C@H](CC(=O)O)NC(=O)[C@H](CC(=O)O)NC(=O)[C@H]2CCCCN2C1=O", "organism": "Enterococcus", "assay": "broth microdilution", "test system": "VRE 155, Mueller-Hinton broth, Mg2+ 10 mg/L", "conditions": "16 h, added: Ca2+ 2.5 mM", "endpoint": "MIC", "result": "2 µg/mL"}
{"Structure (SMILES)": "CCCC/C=C/C(=O)N[C@@H](Cc1csc2ccccc12)C(=O)N[C@H]1COC(=O)[C@@H]2C[C@@H](C)CN2C(=O)[C@H](C)NC(=O)[C@@H]2CCCCN2C(=O)[C@@H]2CCCN2C1=O", "organism": "human coronavirus OC43", "test system": "Huh-7", "conditions": "concentration not given, unit not given", "how to read": "baseline: DMSO", "endpoint": "viral RNA release", "result": "0.037 and 0.028 and 0.039"}
{"Structure (SMILES)": "CCC1(CC)CC(=O)N(C2c3cc(C(=O)NC4c5ccccc5CC4O)ccc3OC2(C)COC)C(=N)N1 (centres unmarked)", "organism": "Plasmodium falciparum", "assay": "parasite growth", "test system": "W2Mef", "endpoint": "EC50", "result": "0.4 ± 0.2 nM"}
{"Structure (SMILES)": "CON(C(=O)c1cn(C)nc1C(F)F)C(C)Cc1c(Cl)cc(Cl)cc1Cl (centres unmarked)", "organism": "Blumeria graminis", "test system": "Triticum aestivum", "conditions": "in vivo wheat powdery mildew", "endpoint": "EC50", "result": "0.992 µg/mL"}
{"Structure (SMILES)": "CC[C@H](C)[C@H](NC(=O)[C@H](CC(C)C)NC(=O)[C@H](CC(C)C)NC(=O)[C@H](CC(=O)O)NC(=O)[C@@H](NC(=O)[C@H](CCC(=O)O)NC(=O)[C@H](CCCCN)NC(=O)[C@H](Cc1ccc(O)cc1)NC(=O)[C@H](CCCCN)NC(=O)[C@H](Cc1c[nH]cn1)NC(=O)CNC(=O)CN)[C@@H](C)O)C(=O)N[C@@H](CC(C)C)C(=O)N[C@@H](Cc1ccccc1)C(=O)N[C@@H](CCCCN)C(=O)N[C@@H](CC(=O)O)C(=O)N[C@@H](CC(=O)O)C(=O)N[C@@H](Cc1ccc(O)cc1)C(=O)N[C@@H](Cc1ccccc1)C(=O)N[C@@H](C)C(=O)N[C@@H](CCCCN)C(=O)N[C@@H](CCCCN)C(=O)N[C@@H](CC(N)=O)C(=O)N[C@@H](CCC(=O)O)C(=O)N[C@@H](CCC(=O)O)C(=O)N[C@@H](CCCNC(=N)N)C(=O)N[C@@H](CCCCN)C(N)=O", "organism": "hepatitis C virus", "test system": "Huh-7 ET replicon", "how to read": "baseline: TC50 over IC50", "endpoint": "selectivity index", "result": "> 67"}
{"Structure (SMILES)": "Cc1cc(C(=O)Nc2nc3cccc(C)c3n2[C@H]2CCCCN(C(=O)/C=C/CN(C)C)C2)ccn1", "organism": "Trypanosoma brucei brucei", "test system": "2T1 CLK1 C215S overexpressing", "conditions": "2.5 µM, 72 h", "endpoint": "survival", "result": "2.86% and 0.21% and 2.92% and 0.13% and 0.03% and 0.4%"}
{"Structure (SMILES)": "[O-][N+]1=C(c2ccsc2)C2=NCCCN2c2ccccc21", "organism": "Bacteroides fragilis", "assay": "microbial growth", "endpoint": "MIC50", "result": "0.25 µg/mL"}
{"Structure (SMILES)": "COC(=O)C1=CO[C@@H](C)[C@@H]2Cn3ccc4c5ccccc5nc-4c3C[C@H]12", "organism": "Plasmodium falciparum", "assay": "growth, [3H]-hypoxanthine uptake", "test system": "Dd2", "conditions": "96 h", "how to read": "baseline: Dd2 IC50 over 3D7 IC50", "endpoint": "resistance index", "result": 1.7}
{"note": "Repeated from above:"}
{"Structure (SMILES)": "FC(F)(F)c1cccc(CNc2nc(NC3CCN(Cc4ccccc4)CC3)c3nc[nH]c3n2)c1", "organism": "Cryptococcus neoformans", "assay": "RNA-seq, measured: CNAG_05320", "conditions": "48 µg/mL, 3 h", "how to read": "baseline: untreated", "endpoint": "mRNA fold change", "result": 1.31}
